# Measurements of several laboratories.
Structure (SMILES),tested on,assay,system,conditions,endpoint,result
CCCN(O)N=Nc1ccc(S(=O)(=O)Nc2cc(C)on2)cc1,,"DPPH scavenging, absorbance",,60 µg/mL,inhibition,16.7%
O=C(O)c1ccc(O)cc1,Helicobacter pylori,"microbial growth, broth dilution",,0.98 µg/mL,inhibition,100%
COc1cccc(NC(=O)Cn2cc(COc3ccc(-c4nc5ccccc5c(=O)n4Nc4ccc([N+](=O)[O-])cc4[N+](=O)[O-])cc3OC)nn2)c1,,"DPPH scavenging, absorbance",,100 µM,inhibition,19.1%
CCN(O)N=Nc1ccc(S(=O)(=O)Nc2cc(C)on2)cc1,,"DPPH scavenging, absorbance",,20 µg/mL,inhibition,12.2%
CCCCn1cnc2ccc(-c3ccc(NC(=O)Nc4ccc(Cl)cc4)nc3)cc2c1=O,HCC827,"cell growth or viability, CCK-8",,72 h,IC50,1.6 µM
Cc1cc(C)c(C#N)c(SCC(=O)c2ccccc2O)n1,Trypanosoma brucei,"parasite growth, resazurin",RHODESIENSE,,EC50,62.5 µM
Cc1noc(NS(=O)(=O)c2ccc(N=NN(C)O)cc2)c1C,,"DPPH scavenging, absorbance",,300 µg/mL,inhibition,28.1%
O=C(Nc1ccc(-c2ccc3ncn(Cc4ccccc4)c(=O)c3c2)cn1)C1CCC1,HCC827,"cell growth or viability, CCK-8",,72 h,IC50,> 10 µM
CC(=NNC(=O)c1ccncc1)c1ccc(Nc2nnc(-c3ccc(Cl)cc3)c3ccccc23)cc1,HepG2,"cell growth or viability, MTT",,"0.156 µM, 24 h",viability,82.9%
C=C[C@@]1(C)C=C2CC[C@@H]3[C@](C)(CCC[C@@]3(C)C(=O)O)[C@H]2CC1,Helicobacter pylori,"microbial growth, broth dilution",,0.98 µg/mL,inhibition,26.4%
Cc1cc(C)c(C#N)c(SCC(=O)N2CCN(C)CC2)n1,Leishmania infantum,parasite growth,mouse Macrophage,"intracellular, amastigote",EC50,> 64 µM
CN(Cc1ccc(C2(C(F)(F)F)CC2)cc1)Cc1cccc2ccccc12,Trichophyton mentagrophytes,"microbial growth, disc diffusion",ATCC18748,"0.00025 µg/mL, 72 h",inhibition zone,0 mm
CCCN(O)N=Nc1ccc(S(=O)(=O)Nc2onc(C)c2C)cc1,,"DPPH scavenging, absorbance",,20 µg/mL,inhibition,3.45%
CC(=NNC(=O)c1ccc(N)cc1)c1ccc(Nc2nnc(-c3ccc(Cl)cc3)c3ccccc23)cc1,HepG2,"cell growth or viability, MTT",,1.25 µM,cell death,54%
Cc1ccc(N(O)N=Nc2ccc(S(=O)(=O)Nc3onc(C)c3C)cc2)cc1,,"DPPH scavenging, absorbance",,20 µg/mL,inhibition,3.98%
CC(=NNC(=O)c1ccccc1)c1ccc(Nc2nnc(-c3ccc(Cl)cc3)c3ccccc23)cc1,HepG2,"cell growth or viability, MTT",,10 µM,cell death,96.7%
CCCn1cnc2ccc(-c3ccc(NC(=O)CC(C)CC)nc3)cc2c1=O (stereo not drawn),HCC827,"cell growth or viability, CCK-8",,72 h,IC50,0.34 µM
S=C(Nc1ccccc1)Nc1ccc(Oc2nnc(-c3ccc(Cl)cc3)c3ccccc23)cc1,HepG2,"cell growth or viability, MTT",,2.5 µM,cell death,82%
COc1cc([C@H]2OC[C@H]3[C@@H]2CO[C@@H]3c2cc(OC)c(O)c(OC)c2)cc(OC)c1O,Helicobacter pylori,"microbial growth, broth dilution",,1.95 µg/mL,inhibition,100%
COc1cc([N+](=O)[O-])ccc1NC(=O)Cn1cc(COc2ccc(-c3nc4ccccc4c(=O)n3Nc3ccc([N+](=O)[O-])cc3[N+](=O)[O-])cc2OC)nn1,,"DPPH scavenging, absorbance",,100 µM,inhibition,20.9%
CN(O)N=Nc1ccc(S(=O)(=O)Nc2nccs2)cc1,,"DPPH scavenging, absorbance",,240 µg/mL,inhibition,28.4%
Cc1cc(C)c(C#N)c(SC(C)C(=O)c2ccccc2)n1 (stereo not drawn),Leishmania infantum,parasite growth,mouse Macrophage,"intracellular, amastigote",EC50,> 64 µM
O=C(Nc1ccc(Oc2nnc(-c3ccc(Cl)cc3)c3ccccc23)cc1)c1cccc([N+](=O)[O-])c1,HepG2,"cell growth or viability, MTT",,"0.312 µM, 24 h",viability,99.6%
CC[C@H]1OC(=O)[C@H](C)[C@@H](O[C@H]2C[C@@](C)(OC)[C@@H](O)[C@H](C)O2)[C@H](C)[C@@H](O[C@@H]2O[C@H](C)C[C@H](N(C)C)[C@H]2O)[C@](C)(OC)C[C@@H](C)C(=O)[C@H](C)[C@@H](O)[C@]1(C)O,Helicobacter pylori,"microbial growth, broth dilution",,0.98 µg/mL,inhibition,92.5%
COc1cc(-c2nc3ccccc3c(=O)n2Nc2ccc([N+](=O)[O-])cc2[N+](=O)[O-])ccc1OCc1cn(CC(=O)Nc2ccccc2[N+](=O)[O-])nn1,,"DPPH scavenging, absorbance",,100 µM,inhibition,22.1%
COC(=O)c1ccc(O)cc1,Helicobacter pylori,"microbial growth, broth dilution",,1.95 µg/mL,inhibition,100%
CN(Cc1ccc(C(C)(C)C)cc1)Cc1cccc2ccccc12,Trichophyton mentagrophytes,"microbial growth, disc diffusion",ATCC18748,"0.001 µg/mL, 72 h",inhibition zone,19.2 mm
Cn1nnc(-c2cccnc2SCC(=O)c2ccc(F)cc2)n1,Trypanosoma brucei,"parasite growth, resazurin",,,EC50,> 64 µM
O=c1cc(-c2ccc(O)cc2)oc2cc(O)cc(O)c12,Helicobacter pylori,"microbial growth, broth dilution",,62.5 µg/mL,inhibition,100%
O=C(Nc1ccc(-c2ccc3ncn(Cc4ccccc4)c(=O)c3c2)cn1)c1ccc(F)cc1,NCI-H1975,"cell growth or viability, CCK-8",,72 h,IC50,> 10 µM
CC(=NNC(N)=S)c1ccc(Nc2nnc(-c3ccc(Cl)cc3)c3ccccc23)cc1,HepG2,"cell growth or viability, MTT",,"2.5 µM, 24 h",viability,8.13%
CC(C)Nc1ccnc(Nc2cccc(-c3ccccc3)c2)n1,BJ,"cell growth or viability, ATP luminescence",,72 h,EC50,> 20 µM
CCCN(O)N=Nc1ccc(S(=O)(=O)Nc2nccs2)cc1,,"DPPH scavenging, absorbance",,20 µg/mL,inhibition,10.6%
Cc1cc(C)c(C#N)c(SCC(=O)c2ccc(Cl)cc2)n1,Leishmania infantum,parasite growth,mouse Macrophage,"intracellular, amastigote",EC50,> 64 µM
COc1cc(-c2cc(=O)c3c(O)cc(O)cc3o2)ccc1O,Helicobacter pylori,"microbial growth, broth dilution",,3.9 µg/mL,inhibition,100%
CC(=NNC(=O)c1ccccc1Br)c1ccc(Nc2nnc(-c3ccc(Cl)cc3)c3ccccc23)cc1,HepG2,"cell growth or viability, MTT",,0.625 µM,cell death,78.8%
Cc1cc(NS(=O)(=O)c2ccc(N=NN(C)O)cc2)no1,,"DPPH scavenging, absorbance",,20 µg/mL,inhibition,25.7%
O=C(Nc1ccc(Oc2nnc(-c3ccc(Cl)cc3)c3ccccc23)cc1)c1ccccc1,MCF7,"cell growth or viability, MTT",,0.312 µM,cell death,95.3%
Cc1cc(C)c(C(N)=O)c(SCC(=O)c2ccc(F)cc2)n1,Trypanosoma brucei,"parasite growth, resazurin",RHODESIENSE,,EC50,28.3 µM

# A few entries again:
Structure (SMILES),tested on,assay,system,conditions,endpoint,result
CN(O)N=Nc1ccc(S(=O)(=O)Nc2nccs2)cc1,,"DPPH scavenging, absorbance",,240 µg/mL,inhibition,28.4%
Cc1cc(C)c(C#N)c(SC(C)C(=O)c2ccccc2)n1 (stereo not drawn),Leishmania infantum,parasite growth,mouse Macrophage,"intracellular, amastigote",EC50,> 64 µM
